Results from different studies.
Several values in a cell are separate wells, animals, samples, runs or records. Numbers after ± are the reported error.

The Cmax of `C=CC(=O)N1CCC[C@@H](n2c(=O)n(-c3ccc(Oc4ccccc4)cc3)c3c(N)nccc32)C1` is reported as 0.0835 µg/mL (human, fed, plasma; oral, 300 mg, geometric mean).
With `Cc1cc(/C=C/C#N)cc(C)c1Nc1ccnc(Nc2ccc(C#N)cc2)n1` the Cmax was 0.11 µg/mL (human, haemodialysis, plasma; oral, dose not given, steady state).
The Cmax of `COc1cc(Nc2c(C#N)cnc3cc(OCCCN4CCN(C)CC4)c(OC)cc23)c(Cl)cc1Cl` is reported as 0.0668 µg/mL (human, mild hepatic impairment (NCI), plasma; single dose, geometric mean, total drug).
For `C[C@H](CCC(=O)NCC(=O)O)[C@H]1CC[C@H]2[C@@H]3[C@H](O)C[C@@H]4C[C@H](O)CC[C@]4(C)[C@H]3CC[C@]12C`, the Cmax was 1.68 ± 0.207 µM (human, plasma; concentration not given, endogenous control diurnal).
`O=C(NCCN1CCCC1)c1cc(-c2ccc(CN3CCOCC3)cc2)nc2ccc(F)cc12` has a Cmax of 1.75 µg/mL and 1.19 µg/mL and 0.951 µg/mL and 1.07 µg/mL and 1.22 µg/mL (human, whole blood; oral, 1800 mg).
`N[C@@H](CC(=O)N1CCn2c(nnc2C(F)(F)F)C1)Cc1cc(F)c(F)cc1F` gave a Cmax of 0.499 ± 0.128 µg/mL (female human, plasma; oral, 100 mg single dose).
The Cmax of `Cc1cc(-c2nccc3c2ccn3CC(=O)Nc2ccc(-c3cnccn3)cn2)ccn1` is reported as 0.202 µM (human, plasma; oral, 15 mg once daily, day 16, geometric mean).
With `CCN(CC)CCNC(=O)c1c(C)[nH]c(/C=C2\C(=O)Nc3ccc(F)cc32)c1C` the Cmax was 0.0233 µg/mL (refers to: total drug; human, mild hepatic impairment, plasma; single dose, Child-Pugh classification).
The Cmax of `CO[C@@H]1[C@H](OC(=O)N2CC(CCN3CCOCC3)C2)CC[C@]2(CO2)[C@H]1[C@@]1(C)O[C@@H]1CC=C(C)C` is reported as 0.00838 ± 0.00423 µg/mL (humans, plasma; subcutaneous, 1.8 mg twice weekly, first dose).
`COC(=O)N[C@@H](C)CNc1nccc(-c2cn(C(C)C)nc2-c2cc(Cl)cc(NS(C)(=O)=O)c2F)n1` gave a Cmax of 0.698 µg/mL (human, plasma; oral, 50 mg, geometric mean, added: diltiazem 240 mg once daily).
With `CN1CCC(COc2cnc(-c3cccc(Cn4nc(-c5cccc(C#N)c5)ccc4=O)c3)nc2)CC1` the Cmax was 0.313 µg/mL (human; dose not given, single dose, geometric mean, added: itraconazole 200 mg once daily).
With `COc1ccc([C@@H](O)c2cc(-c3ncnc4cc(N5CCOCC5)ccc34)c(F)cc2Cl)nn1` the Cmax was 1.71 µg/mL (human, plasma; oral, 300 mg twice daily, single dose, geometric mean).
`CC(C)(Sc1ccncc1-c1ccc(C#N)c2ccccc12)C(=O)O` gave a Cmax of 0.0527 µg/mL (human, plasma; oral, 15 mg once daily, added: febuxostat 0 mg).
`O=C(Nc1cnccc1Cl)N1CCN(Cc2ccc3c(c2)OC(F)(F)O3)CC1` gave a Cmax of 0.638 µg/mL (human healthy young men, plasma; oral, 75 mg once daily, day 1, multiple dose mean).
With `Cc1nc(Nc2ncc(C(=O)Nc3c(C)cccc3Cl)s2)cc(N2CCN(CCO)CC2)n1` the Cmax was 0.2 ± 0.068 µg/mL (human patients; oral, 85 mg/m^2, day 8).
The Cmax of `COC(=O)N[C@H](C(=O)N1CCC[C@H]1c1nc2cc([C@H]3CC[C@H](c4cc5nc([C@@H]6CCCN6C(=O)[C@@H](NC(=O)OC)[C@@H](C)OC)[nH]c5cc4F)N3c3cc(F)c(N4CCC(c5ccc(F)cc5)CC4)c(F)c3)c(F)cc2[nH]1)[C@@H](C)OC` is reported as 0.32 µg/mL (healthy human subjects, plasma; oral, dose not given, single dose alone).
`Cc1ncnc2c1ccn2[C@@H]1C[C@H](Oc2cc(C(F)F)c(F)c3c2CNCC3)[C@@H](O)[C@H]1O` gave a Cmax of 0.0275 µg/mL and 0.0122 µg/mL (human; oral, 1 mg twice daily).
With `O=C(/C=C/CN1CCCCC1)Nc1cc2c(Nc3ccc(F)c(Cl)c3)ncnc2cc1O` the Cmax was 0.00994 µg/mL (human, plasma; oral, 30 mg).
For `CN(CC#N)C(=O)C[C@H](Nc1nc2ccccc2[nH]1)c1cccc(C(F)(F)F)c1`, the Cmax was 3.54 ± 1.18 µg/mL (human; intravenous infusion, 1 mg/kg, 5 mg/mL formulation).
`Cc1cc(C)c(CNC(=O)c2cc(Cl)c3c(c2C)O[C@@](C)([C@H]2CC[C@H](N(C)C)CC2)O3)c(=O)[nH]1` has a Cmax of 0.132 µg/mL (geometric LS mean; healthy male humans, plasma; oral, dose not given, added: fluconazole).
With `N#CCNC(=O)c1ccc(-c2ccnc(Nc3ccc(N4CCOCC4)cc3)n2)cc1` the Cmax was 0.777 µg/mL (healthy human volunteers, plasma; oral, dose not given, day 4, without rifampin).
`C[C@H](O)c1cc(C(=O)N[C@@H](C)Cn2ccc(-c3ccc(C#N)c(Cl)c3)n2)n[nH]1` gave a Cmax of 0.561 µg/mL (human, fasted, plasma; oral, 300 mg darolutamide tablet, geometric mean).
`N#CCC1CCN(c2nc(Nc3ccc(N4CCC(O)CC4)cc3)c3c(=O)[nH]ncc3n2)CC1` has a Cmax of 0.186 µg/mL (human, plasma; oral, 80 mg once daily, day 1).
The Cmax of `NCCCS(=O)(=O)O` is reported as 0.815 µg/mL (human, plasma; oral, 171 mg twice daily, day 7, capsule, fasted, dosed days 2-7).
`Fc1ccc([C@@H]2CCNC[C@H]2COc2ccc3c(c2)OCO3)cc1` has a Cmax of 0.049 µg/mL (human, CYP2D6 poor metabolizers; oral, 20 mg, steady state, geometric mean).
`Cc1nc(-c2ccc(OCC(C)C)c(C#N)c2)sc1C(=O)O` gave a Cmax of 0.552 µg/mL (human, plasma; oral, 20 mg once daily, added: verinurad 2.5 mg).
With `Cc1cc(-c2nnc(N)nc2-c2ccc(F)cc2)cc(Cl)n1` the Cmax was 0.703 µg/mL (human patients, plasma; oral, 100 mg nanosuspension once daily, multiple doses, arithmetic mean).
With `Cn1c(=O)oc2ccc(-c3ccc(C[C@@H](C#N)NC(=O)[C@@H]4CNCCCO4)cc3)cc21` the Cmax was 0.169 µg/mL (human, mild renal impairment, plasma; oral, 25 mg single dose, geometric least squares mean).
`C#C[C@]1(O)CC[C@H]2[C@@H]3CCC4=CC(=NO)CC[C@@H]4[C@H]3CC[C@@]21CC` (mixture of isomers) has a Cmax of 0.00177 µg/mL (human; dose not given, alone).
`Cc1nc2ccc(F)cc2n1-c1nc(N)c(F)c(Nc2ccc(C(F)(F)F)cc2)n1` gave a Cmax of 1.58 µg/mL (human patients, plasma; oral, 300 mg twice weekly, cycles 1 and 2 pooled).
`Cn1c(=O)oc2ccc(-c3ccc(C[C@@H](C#N)NC(=O)[C@@H]4CNCCCO4)cc3)cc21` has a Cmax of 0.246 µM (HPLC-MS/MS; healthy male humans, plasma; oral, 10 mg).
`CCCc1nn(C)c2c(=O)[nH]c(-c3cc(S(=O)(=O)N4CCN(C)CC4)ccc3OCC)nc12` has a Cmax of 0.34 µg/mL (humans, plasma; 100 mg, phase I DDI study, added: placebo).
`Cc1ccc(C(=O)N(CCCN)C(c2nc3snc(C)c3c(=O)n2Cc2ccccc2)C(C)C)cc1` (stereo not drawn) has a Cmax of 0.0994 µg/mL (human patients, plasma; intravenous, 16 mg/day, day 3 of induction course, geometric mean).
With `Cn1cncc1[C@@](N)(c1ccc(Cl)cc1)c1ccc2c(c1)c(-c1cccc(Cl)c1)cc(=O)n2C` the Cmax was 1.38 µg/mL (human patients; oral, 300 mg/m2, first dose, cycle 1, initial cohort, median).
`NC[C@@]1(CC(=O)O)[C@@H]2CC[C@H]3C[C@@H]2[C@@H]1C3` gave a Cmax of 0.438 µg/mL (human, severely renal impairment, plasma; geometric least squares mean).
The Cmax of `N#C[C@H](C[C@@H]1CCCNC1=O)NC(=O)[C@H](CC1CC1)NC(=O)c1cc2cccc(Cl)c2[nH]1` is reported as 3.65 µg/mL (human, plasma; 700 mg twice daily, day 1).
`O=C1CC[C@H](N2Cc3cc(N4CCN(CC5CCN(c6ccc([C@@H]7c8ccc(O)cc8CC[C@@H]7c7ccccc7)cc6)CC5)CC4)ccc3C2=O)C(=O)N1` has a Cmax of 0.477 µg/mL (human, plasma; oral, 200 mg, added: dabigatran etexilate 75 mg).
`COc1cc(N2CCC(N3CCN(C)CC3)CC2)ccc1Nc1ncnc(Nc2ccccc2S(=O)(=O)C(C)C)n1` has a Cmax of 0.667 µg/mL (human, plasma; oral, 200 mg, day 28).
With `CCN1CCN(Cc2ccc(Nc3ncc(F)c(-c4cc(F)c5nc(C)n(C(C)C)c5c4)n3)nc2)CC1` the Cmax was 0.0958 µg/mL (healthy human, fasted; oral, 150 mg, 3 x 50 mg capsules).
With `N[C@@H]1c2cccnc2[C@H](OC(=O)N2CCC(n3c(=O)[nH]c4ncccc43)CC2)CC[C@H]1c1cccc(F)c1F` the Cmax was 0.948 µg/mL (human, plasma; oral, 75 mg, single dose alone, mean).
`N[C@](CO)(CCc1ccc(Sc2cccc(OCc3ccccc3)c2)cc1Cl)COP(=O)(O)O` has a Cmax of 0.000996 µg/mL (human fasted, whole blood; 3 mg MOC, MOC given alone).
`C[C@H]1CN(C(=O)CC#N)[C@]12CCN(c1ncnc3[nH]ccc13)C2` has a Cmax of 0.0184 µg/mL (healthy human, plasma; oral, 3 mg single, day 1, geometric mean).
With `CCNCCCNC/C=C\CNCCCNCC` the Cmax was 0.396 µg/mL (LC-MS/MS; human cancer patients, plasma; intravenous infusion 60 min, 100 mg, median, cycle 1).
`C=CC(=O)N(C)CCOc1c(N)ncnc1-c1cc(F)cc(NC(=O)c2ccc(C3CC3)cc2F)c1C` gave a Cmax of 0.138 µg/mL (human, whole blood; oral, 60 mg, single ascending dose, fasted).
`COc1ccc2[nH]c([S@+]([O-])Cc3ncc(C)c(OC)c3C)nc2c1` gave a Cmax of 0.08 µg/mL (human, dried blood spots; oral, 10 mg omeprazole, control arm).
With `Cc1ccc([C@@H]2O[C@H](CO)[C@@H](O)[C@H](O)[C@H]2O)cc1Cc1ccc(-c2ccc(F)cc2)s1` the Cmax was 0.911 µg/mL (human, maintenance hemodialysis patients; oral, 100 mg once daily, steady state, mean).
The Cmax of `COc1ccc2[nH]c([S@+]([O-])Cc3ncc(CO)c(OC)c3C)nc2c1` is reported as 0.022 µM (human, dried plasma spots; 5 mg racemic omeprazole, added: rifampicin pretreatment).
`Cc1cn(C(=O)c2c(-c3c(Cl)cc(Cl)cc3Cl)noc2C(C)(C)F)c2cccc(/C=C/C(=O)O)c12` has a Cmax of 37.2 µg/mL (human patients; 700 mg bid, cycle 8 day 1).

Excerpt of the above:
The Cmax of `N#C[C@H](C[C@@H]1CCCNC1=O)NC(=O)[C@H](CC1CC1)NC(=O)c1cc2cccc(Cl)c2[nH]1` is reported as 3.65 µg/mL (human, plasma; 700 mg twice daily, day 1).
`O=C1CC[C@H](N2Cc3cc(N4CCN(CC5CCN(c6ccc([C@@H]7c8ccc(O)cc8CC[C@@H]7c7ccccc7)cc6)CC5)CC4)ccc3C2=O)C(=O)N1` has a Cmax of 0.477 µg/mL (human, plasma; oral, 200 mg, added: dabigatran etexilate 75 mg).
`COc1cc(N2CCC(N3CCN(C)CC3)CC2)ccc1Nc1ncnc(Nc2ccccc2S(=O)(=O)C(C)C)n1` has a Cmax of 0.667 µg/mL (human, plasma; oral, 200 mg, day 28).
With `CCN1CCN(Cc2ccc(Nc3ncc(F)c(-c4cc(F)c5nc(C)n(C(C)C)c5c4)n3)nc2)CC1` the Cmax was 0.0958 µg/mL (healthy human, fasted; oral, 150 mg, 3 x 50 mg capsules).
With `N[C@@H]1c2cccnc2[C@H](OC(=O)N2CCC(n3c(=O)[nH]c4ncccc43)CC2)CC[C@H]1c1cccc(F)c1F` the Cmax was 0.948 µg/mL (human, plasma; oral, 75 mg, single dose alone, mean).
`N[C@](CO)(CCc1ccc(Sc2cccc(OCc3ccccc3)c2)cc1Cl)COP(=O)(O)O` has a Cmax of 0.000996 µg/mL (human fasted, whole blood; 3 mg MOC, MOC given alone).
`C[C@H]1CN(C(=O)CC#N)[C@]12CCN(c1ncnc3[nH]ccc13)C2` has a Cmax of 0.0184 µg/mL (healthy human, plasma; oral, 3 mg single, day 1, geometric mean).
